Measured values gathered from unrelated publications.
± marks the error that the study gave.

| Compound | assay | test system | setting | how to read | measurement | result |
| --- | --- | --- | --- | --- | --- | --- |
| CC(C)C[C@@H](N)C(=O)NCC(=O)N[C@H](C)C(=O)N[C@H](CO)C(=O)N[C@H](Cc1c[nH]c2ccccc12)C(=O)N[C@H](Cc1c[nH]cn1)C(=O)N[C@H](CCCNC(=N)N)C(=O)N1CCC[C@@H]1C(=O)N[C@H](CC(=O)O)C(=O)N[C@H](CCCCN)C(=O)N[C@H](CS)C(=O)N[C@H](CS)C(=O)N[C@H](CC(C)C)C(=O)NCC(=O)N[C@H](Cc1ccc(O)cc1)C(=O)N[C@H](CCC(N)=O)C(=O)N[C@H](CCCCN)C(=O)N[C@H](CCCNC(=N)N)C(=O)N1CCC[C@@H]1C(=O)N[C@H](CC(C)C)C(=O)N1CCC[C@@H]1C(N)=O | LC-MS/MS | rat plasma | 5000 ng/mL, 12 h, 25 °C, room temperature before extraction | baseline: nominal | accuracy | 114% |
| CN(C)C(CNC(=O)Nc1cc(C(F)(F)F)ccc1N1CCOCC1)c1ccncc1 (centres unmarked) | – | mouse, serum | intraperitoneal, 180 mg/kg single dose | – | serum iron | 124 µg/dL |
| CC[C@H](C)CCCCC(=O)N[C@@H](CCN)C(=O)N[C@H](C(=O)N[C@@H](CCN)C(=O)N[C@H]1CCNC(=O)[C@H]([C@@H](C)O)NC(=O)[C@H](CCN)NC(=O)[C@H](CCN)NC(=O)[C@H](CC(C)C)NC(=O)[C@@H](Cc2ccccc2)NC(=O)[C@H](CCN)NC1=O)[C@@H](C)O | LC-MS/MS | male CD-1 mouse, kidney homogenate | subcutaneous, 17.2 mg/kg single dose, 4 h | – | kidney concentration | 126000 ng/g |
| CC[C@H](C)[C@H](N)C(=O)N[C@H](C(=O)NCC(=O)N[C@H](C(=O)N[C@H](C(=O)N[C@@H](CC(=O)O)C(=O)N[C@@H](CO)C(=O)N[C@@H](CC(C)C)C(=O)N[C@H](C(=O)N[C@@H](CCCCN)C(=O)N[C@@H](Cc1c[nH]c2ccccc12)C(=O)N[C@H](C(=O)N[C@H](C(=O)N[C@@H](CC(=O)O)C(=O)N[C@H](C(=O)N[C@H](C(=O)N[C@@H](CC(N)=O)C(=O)N[C@@H](CCCCN)C(=O)N[C@@H](Cc1ccccc1)C(=O)N[C@H](C(=O)N[C@@H](CCCCN)C(=O)N[C@@H](CCCCN)C(=O)O)[C@@H](C)O)C(C)C)[C@@H](C)O)[C@@H](C)CC)[C@@H](C)CC)C(C)C)[C@@H](C)CC)[C@@H](C)O)[C@@H](C)CC | circular dichroism | POPC vesicles | pH 7.5 | – | fractional helicity | 0.81 |
| CN1Cc2c(Cl)cc(Cl)cc2[C@H](c2ccc(S(=O)(=O)NCCOCCOCCNC(=O)CCC(=O)NCCOCCOCCNS(=O)(=O)c3ccc([C@@H]4CN(C)Cc5c(Cl)cc(Cl)cc54)cc3)cc2)C1 | – | Sprague Dawley rat male, feces | oral, 0.1 mg/kg, up to 72 h | baseline: dose | fecal recovery of parent | 46 ± 8% |
| CC[C@@H]1C[C@]1(NC(=O)[C@@H]1C[C@@]2(CN1C(=O)[C@@H](NC(=O)[C@@H](NC(=O)[C@@H]1CCCCN1C(C)C)C1CCCCC1)C(C)(C)C)C(C)(C)C21CCC1)C(=O)NS(=O)(=O)N1CCCC1 | – | human, plasma | oral, 50 mg | – | terminal half-life | ~3 h |
| CC[C@H](C)[C@H](NC(=O)[C@H](CC(=O)O)NC(=O)[C@H](CO)NC(=O)[C@H](CCC(N)=O)NC(=O)[C@H](C)NC(=O)[C@H](CC(=O)O)NC(=O)[C@H](CCC(=O)O)NC(=O)[C@H](Cc1c[nH]cn1)NC(=O)[C@H](Cc1ccc(O)cc1)NC(=O)[C@H](C)NC(=O)[C@H](CC(=O)O)NC(=O)[C@H](CCC(=O)O)NC(=O)[C@H](Cc1c[nH]cn1)NC(=O)[C@H](Cc1ccc(O)cc1)NC(=O)[C@H](C)NC(=O)[C@H](CC(=O)O)NC(=O)[C@H](CCC(=O)O)NC(=O)[C@H](Cc1c[nH]cn1)NC(=O)[C@H](Cc1ccc(O)cc1)NC(=O)[C@H](C)NC(=O)[C@H](CC(=O)O)NC(=O)[C@H](CCC(=O)O)NC(=O)[C@H](Cc1c[nH]cn1)NC(=O)[C@H](Cc1ccc(O)cc1)NC(=O)[C@H](C)NC(=O)[C@H](CC(=O)O)NC(=O)[C@H](CCC(=O)O)NC(=O)[C@H](Cc1c[nH]cn1)NC(=O)[C@@H](N)Cc1ccc(O)cc1)C(=O)N[C@H](C(=O)N[C@@H](C)C(=O)N[C@@H](Cc1c[nH]cn1)C(=O)N[C@@H](CC(C)C)C(=O)N[C@@H](CC(C)C)C(=O)O)C(C)C | – | normal mouse, blood | dose not given | – | EO share of white cells | 2.7 ± 0.4% |
| CCCCCCCCCCCCC(=O)O.O=C1CCCC2C3CCCN4CCCC(CN12)C34 (centres unmarked) | – | water | concentration not given, 313.15 K | – | critical aggregation concentration | 0.001 mol/kg |
| CC(C)C[C@@H](NC(=O)[C@@H](CCCCN)NC(=O)CNC(=O)CNC(=O)[C@@H]1CSSC[C@H](N)C(=O)NCC(=O)N[C@@H](CCCNC(=N)N)C(=O)N[C@@H](CCCNC(=N)N)C(=O)N[C@@H](C)C(=O)NCC(=O)NCC(=O)N[C@@H](CO)C(=O)N1)C(=O)N[C@H](C)C(=O)N[C@H](CCCCN)C(=O)N[C@H](CC(C)C)C(=O)N[C@H](C)C(=O)N[C@H](CCCCN)C(=O)N[C@H](CCCCN)C(=O)N[C@H](CC(C)C)C(=O)N[C@H](C)C(=O)N[C@H](CCCCN)C(=O)N[C@H](CC(C)C)C(=O)N[C@H](C)C(=O)N[C@H](CCCCN)C(=O)O | – | cynomolgus monkey, plasma | intravenous infusion, 1 mg/kg, 2 h | – | plasma level | not detected |
| C[C@H]1N=C(c2ccccc2F)c2cc(Br)ccc2-n2cnc(C(=O)NCCS(=O)(=O)O)c21 | LC-MS/MS | Swiss Webster mouse, female, urine | intravenous, 250 µg parent drug, 0 to 24 h | – | cumulative excretion | 0.6 ± 0.1% |
| CSCC[C@@H]1NC(=O)[C@@H]2CSSC[C@H](NC(=O)[C@H](CO)NC(=O)[C@H](C)N)C(=O)N[C@@H](CCCNC(=N)N)C(=O)N[C@@H]([C@@H](C)O)C(=O)N3CCC[C@H]3C(=O)N[C@@H](CCCCN)C(=O)N[C@@H](CC(=O)O)C(=O)N[C@H]3CSSC[C@H](NC(=O)[C@H](CCCCN)NC(=O)[C@H](CCCNC(=N)N)NC(=O)[C@H](CC(N)=O)NC1=O)C(=O)N[C@@H](CCCCN)C(=O)N[C@H]1CSSC[C@H](NC(=O)[C@@H]4CCCN4C(=O)[C@H](CC(=O)O)NC(=O)[C@H](C)NC3=O)C(=O)N[C@@H](C)C(=O)N[C@@H](CCCCN)C(=O)N[C@@H](CCC(=O)O)C(=O)N[C@@H]([C@@H](C)O)C(=O)NCC(=O)N[C@@H](CSSC[C@@H](C(N)=O)NC(=O)[C@H](CCCNC(=N)N)NC(=O)[C@H](CC(N)=O)NC1=O)C(=O)N1CCC[C@H]1C(=O)N[C@@H](Cc1ccc(O)cc1)C(=O)NCC(=O)N[C@@H](CCCCN)C(=O)N2 | – | DA rat, pristane-induced arthritis, serum | subcutaneous, single 0.1 mg/kg at onset, end of 21-day trial | – | ALT | 52.2 U/L |
| CC(=CCC(O)C(C)=Cc1csc(C)n1)CC=CC(C)C(O)C(C)C(=O)C(C)(C)C(O)CC(=O)O (centres unmarked) | – | human, plasma | intravenous infusion, 8.5 mg/m2 KOS-1584, 3 h infusion, cycle 1 | baseline: metabolite over KOS-1584 | AUC ratio | 6.62 ± 1.69% |
| CC(C)[C@H](NC(=O)[C@H](Cc1ccccc1)NC(=O)[C@H](Cc1ccccc1)NC(=O)[C@H](CC(=O)O)NC(=O)[C@H](CC(=O)O)NC(=O)CNC(=O)[C@H](CCCCN)NC(=O)[C@H](CCCCN)NC(=O)[C@@H](N)Cc1c[nH]cn1)C(=O)N[C@@H](Cc1ccc(O)cc1)C(=O)N[C@@H](C)C(=O)N[C@@H](CC(=O)O)C(=O)N[C@@H](Cc1ccc(O)cc1)C(=O)O | cytotoxicity | human cells | 2 (unit not given) | – | CC50 | > 100 µM |
| CC[C@@]1(O)C(=O)OCc2c1cc1n(c2=O)Cc2c-1nc1cc(F)c(C)c3c1c2[C@@H](NC(=O)CCCN)CC3 | PAMPA | GIT-0 lipid membrane | 5 µM, 4 h, pH 7.4, 25 °C | – | Peff | < 0.1 ×10⁻⁶ cm/s |
| CC(C)[C@H]1NC(=O)C[C@H]2/C=C/CCSSC[C@@H](NC1=O)C(=O)N[C@H](Cc1cccc3ccccc13)C(=O)NCC(=O)O2 | – | nude mouse, blood | intraperitoneal, 4 mg/kg | – | half-life | 1 h |
| CCCCCCCC(=O)SCC/C=C/[C@@H]1CC(=O)NCc2nc(cs2)C2=N[C@@](C)(CS2)C(=O)N[C@@H](C(C)C)C(=O)N1 | – | female NIH Swiss mice | intravenous bolus, 5 mg/kg, two-compartment model | – | mean residence time | 108 min |
| CC[C@H](C)[C@H](NC(=O)[C@H](CCCCN)NC(=O)CNC(=O)[C@@H](NC(=O)[C@H](Cc1c[nH]cn1)NC(=O)[C@H](Cc1c[nH]cn1)NC(=O)[C@@H](NC(=O)CNC(=O)[C@H](Cc1c[nH]cn1)NC(=O)[C@H](Cc1ccccc1)NC(=O)[C@H](CC(C)C)NC(=O)[C@H](CC(C)C)NC(=O)[C@H](CCCNC(=N)N)NC(=O)[C@H](Cc1ccccc1)NC(=O)[C@@H](N)Cc1ccccc1)C(C)C)C(C)C)C(=O)N[C@@H](CCCCN)C(=O)N1CCC[C@H]1C(=O)N[C@@H](CCCNC(=N)N)C(=O)N[C@@H](C)C(N)=O | – | zebrafish embryos | 1 h, 4, 28, 52 hpf | – | acute toxic concentration | 25 µg/mL |
| CC(C)[C@@H]1NC(=O)[C@H](Cc2ccccc2)NC(=O)[C@H](Cc2ccc(O)cc2)NC(=O)CCSSC[C@@H](C(=O)N2CCC[C@H]2C(=O)N[C@H](CCCNC(=N)N)C(=O)NCC(N)=O)NC(=O)[C@H](CCC(N)=O)NC1=O | – | Wistar rat, blood | intravenous, 100 µg/kg single dose, 72 h | – | ALT | 20.4 ± 3.1 IU/L |
| CCCCCCCCCCCCCCCCCC(=O)N=C(N)NCCC[C@H](NC(=O)[C@H](CC(C)C)NC(=O)[C@@H](CC(C)C)NC(=O)[C@H](Cc1ccc(O)cc1)NC(=O)[C@H](CO)NC(=O)[C@H](Cc1c[nH]c2ccccc12)NC(=O)[C@H](Cc1c[nH]cn1)NC(=O)[C@@H]1CCC(=O)N1)C(=O)N1CCC[C@H]1C(=O)NCC | – | human plasma | 28 days, pH 7.4, 37 °C | – | conversion to leucine | 90.7 ± 7.74% |
| COc1cc(NC(=O)C(=O)c2c(C)n(Cc3ccc(Cl)cc3)c3ccc(C)cc23)ccn1 | – | cynomolgus monkey, plasma | intravenous, 1 mg/kg | – | half-life | 21.5 h |
| CC(C)C[C@@H]1NC(=O)[C@@H](Cc2c[nH]c3ccccc23)NC(=O)[C@H](CCCNC(=N)N)NC(=O)[C@@H](CCC(=O)O)NC(=O)[C@H](CCC(N)=O)NC(=O)[C@@H](CCC(=O)O)NC(=O)[C@H](CCCNC(=N)N)NC(=O)[C@@H](Cc2c[nH]c3ccccc23)NC1=O | haemolysis | – | 660 µM | – | haemolysis | 4% |
| CCCC[C@H]1C(=O)N(C)[C@@H](CCCC)C(=O)N[C@@H](CCCNC(=O)CN2CCN(CC(=O)O)CCN(CC(=O)O)CCN(CC(=O)O)CC2)C(=O)N[C@H](C(=O)NCC(N)=O)CSCC(=O)N[C@@H](Cc2ccc(O)cc2)C(=O)N(C)[C@@H](C)C(=O)N[C@@H](CC(N)=O)C(=O)N2CCC[C@H]2C(=O)N[C@@H](Cc2c[nH]cn2)C(=O)N[C@@H](CC(C)C)C(=O)N(C)CC(=O)N[C@@H](Cc2c[nH]c3ccccc23)C(=O)N[C@@H](CO)C(=O)N[C@@H](Cc2c[nH]c3ccccc23)C(=O)N1C [gallium-68 labelled] | – | NOD/SCID mice, CHO-hPD-L1 xenograft, tumour over blood | iv, dose not given, 120 min | baseline: tumour over blood | tissue-to-tissue ratio | 2.61 ± 0.78 |
| CC[C@H](C)C(=O)N1CCC(NC(=O)Nc2ccc(OC(F)(F)F)c(F)c2)CC1 | – | healthy volunteers | oral, 16 mg single dose, 14 (unit not given) | – | subjects with severe TEAE | 0% |

A few entries again:
| Compound | assay | test system | setting | how to read | measurement | result |
| --- | --- | --- | --- | --- | --- | --- |
| COc1cc(NC(=O)C(=O)c2c(C)n(Cc3ccc(Cl)cc3)c3ccc(C)cc23)ccn1 | – | cynomolgus monkey, plasma | intravenous, 1 mg/kg | – | half-life | 21.5 h |
| C[C@H]1N=C(c2ccccc2F)c2cc(Br)ccc2-n2cnc(C(=O)NCCS(=O)(=O)O)c21 | LC-MS/MS | Swiss Webster mouse, female, urine | intravenous, 250 µg parent drug, 0 to 24 h | – | cumulative excretion | 0.6 ± 0.1% |
